Experimental data of several laboratories.
Parts stem from different laboratories: compare values within a part only.

Set 1
Target: RING finger protein unkempt homolog, zinc fingers 1-6, SBP tag (UNK, Homo sapiens, UniProt Q9C0B0, residues 30-357)
Chain of UniProt Q9C0B0 (30-357, looked up): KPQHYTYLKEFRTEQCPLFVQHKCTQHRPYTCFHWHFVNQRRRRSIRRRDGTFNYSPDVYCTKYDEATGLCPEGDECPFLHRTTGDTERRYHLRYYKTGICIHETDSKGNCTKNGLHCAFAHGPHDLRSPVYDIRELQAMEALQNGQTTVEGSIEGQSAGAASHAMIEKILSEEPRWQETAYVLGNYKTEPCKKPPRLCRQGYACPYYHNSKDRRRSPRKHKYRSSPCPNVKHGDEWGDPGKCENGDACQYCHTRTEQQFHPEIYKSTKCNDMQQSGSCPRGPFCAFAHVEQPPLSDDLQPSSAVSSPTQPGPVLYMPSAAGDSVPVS
Method: RNA Bind-n-Seq
Molecule type: RNA
Medium: in vitro
Tested at: 100 nM
Setting: RNA with constant flanks, vertebrate orthologous sites, ends assumed
Reference: input RNA pool
Reading: higher = stronger binding
Endpoint: bound/input enrichment
Constant ends, left off below: GGGAGUUCUACAGUCCGACGAUC … CAACAGAGGAUUGAGCAUCA
UCUAAGAAUCAGAUGCUUUUUGUUUUCUUUGGGUCUCUGUUAACCUAUCUAUUGUUCUAUUAGUCCCUCUCUUGCACAAAUAUCGUACUUUAAAAUUGUGUUUAUGUAAAACAGGACUGA: 0.25 ratio
AACUGCUGGAGCAGAGUGCUCUGUCAGCACCAGUGGCCACCAUCCCUUCACACCACUGUCCUACUUACAGGAAUUUAAUAUUUUUAAAAGUUUUACAAUGCUGUAUAUUCAAAGAUUGUU: 0.293 ratio
CCCUCUGAACCCCAUAUCUUCUGUUUCAUAAUGCAGAAGUAUUAUUUUCAAUUAUAUUGUUAGUGGACUUGUUUUAAUUUUAGAGAACUUUGAGUACAGAUACUGUGAGCUUACAUUGAA: 3.57 ratio
CCAAGAAACAUAGGAUAUUUGUGCUAUUUAAAAGUGAGCUUUGCUUUUUCUGCAUUUAAAGAGAAUACUUUUAUAUCAGGGGUGCUUUAAAAGUGUGAAGGUGUGCUCUGAUAAUCCCAG: 0.519 ratio
UCCUGUACAGCAAGGACAGGGGGACCCCCCUCCGCAUUUCCCAGGAGCAAAAAGGCCAGGGAGAGCCCAGACACAUCCAGUUAUACGGUUCAGUUUUUGCUUUCUAUUAUUUUGUGUGUG: 0.376 ratio
CUUUCUCCCCUGCUGAGAGGGAGUGUGGGGAGCCCAGGAAGACCCUCAACUGUUCCAAUCCAGUAUUUUUUUUUCUUUUUUAAAAAUCACUGUAUUUAUUAUGACGAUGGUGACUCCCCA: 0.435 ratio
CUACGUCCCCUGGGACGGGACGGAUGUUUUUUUAUGUUUGGAGAUUUAAACUUGUGCUUGUAGAAGACUGUACCCUUUUUGUCUUUUUUUUUUUUUUUUGGAACCACCAACCUCCACCUC: 1.31 ratio
AAAUAUACUUCAUGCCAUGGACUCCAUAUCGCACUGAUACUUUGAUAGAAUAUGCUUCUUUGGAGGACUUCCAAAAUGGACGCCAGCAGACAACGUAUAAACUCCCAAAUCGAGUGGAUG: 0.829 ratio

Set 2
Target: Ras GTPase-activating protein-binding protein 1, full length (G3BP1, Homo sapiens, UniProt Q13283)
Chain of UniProt Q13283 (whole entry, looked up): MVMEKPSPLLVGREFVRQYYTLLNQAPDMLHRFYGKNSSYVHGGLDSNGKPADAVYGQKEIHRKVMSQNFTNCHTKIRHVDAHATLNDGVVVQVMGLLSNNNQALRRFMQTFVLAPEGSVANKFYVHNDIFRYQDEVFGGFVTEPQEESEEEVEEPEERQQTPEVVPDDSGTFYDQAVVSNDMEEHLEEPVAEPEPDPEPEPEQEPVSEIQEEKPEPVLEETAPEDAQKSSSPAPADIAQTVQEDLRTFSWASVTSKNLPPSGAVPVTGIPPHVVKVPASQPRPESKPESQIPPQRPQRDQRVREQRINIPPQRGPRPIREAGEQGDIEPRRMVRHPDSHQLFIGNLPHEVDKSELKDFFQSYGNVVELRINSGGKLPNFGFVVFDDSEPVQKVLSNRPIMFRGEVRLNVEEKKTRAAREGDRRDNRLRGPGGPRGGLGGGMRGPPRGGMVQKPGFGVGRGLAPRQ
Method: RNA Bind-n-Seq
Molecule type: RNA
Medium: in vitro
Tested at: 200 nM
Setting: whole 134-nt RNA, ends assumed
Together with: 150 mM LiCl
Reference: input library
Reading: higher = stronger binding
Endpoint: log2 enrichment
Library: 7-deaza-guanosine replaces G
Constant ends, left off below: GGGAGUUCUACAGUCCGACGAUC … UGGAAUUCUCGGGUGUCAAGG
CAAGUCCUGUGCUACACAUCGUAUGUACCGAAUCGGGAAAAAGGGAAAGGGUGGGAAAGUAUUAUGUUACGCCGUUCGGAUCUGCACUUC: -0.384
UCAAGUCCUGUGCUACACAUCGUAUGUACCGAAUCGGUUGGGGUUGGGGUUGGGAAAGUAUUAUGUUACGCCGUUCGGAUCUGCACUUCC: -0.794
UUAUGGAGUUUGGCCCUGAGGACAUGCUGCUGGGCAUGGAUGAGGCUGAAGAUGAUGAGGACCUGGAGGCUGAGCUGCUGGCUCUCACAG: -1.37
UCCUGUGCUACACAUCGUAUGUACCGAAUCAAACCCCCCCAAAUUUUUAAAUUUUUAAAAAAGUAUUAUGUUACGCCGUUCGGAUCUGCA: 1.46
AGUCCUGUGCUACACAUCGUAUGUACCGAAUCGGGCCCCGGGGCCCCGGGGCCCCGGGAAAGUAUUAUGUUACGCCGUUCGGAUCUGCAC: -0.0682
UCCUGUGCUACACAUCGUAUGUACCGAAUCGGGUUUUUUGGGUUUUUUGGUUUUUUGGGAAAGUAUUAUGUUACGCCGUUCGGAUCUGCA: 0.368
CUCAAGUCCUGUGCUACACAUCGUAUGUACCGAAUCGGGGAGGGGAGGGGAGGGAAAGUAUUAUGUUACGCCGUUCGGAUCUGCACUUCC: 0.139
UCCUGUGCUACACAUCGUAUGUACCGAAUCGGGUUUUUUGGGUUUUUUGGGGUUUUUUGGAAAGUAUUAUGUUACGCCGUUCGGAUCUGC: 0.862

Set 3
Target: Centromere-binding protein 1, full length, His-tagged (CBF1, Saccharomyces cerevisiae, UniProt P17106, residues 1-351)
Chain of UniProt P17106 (whole entry, looked up): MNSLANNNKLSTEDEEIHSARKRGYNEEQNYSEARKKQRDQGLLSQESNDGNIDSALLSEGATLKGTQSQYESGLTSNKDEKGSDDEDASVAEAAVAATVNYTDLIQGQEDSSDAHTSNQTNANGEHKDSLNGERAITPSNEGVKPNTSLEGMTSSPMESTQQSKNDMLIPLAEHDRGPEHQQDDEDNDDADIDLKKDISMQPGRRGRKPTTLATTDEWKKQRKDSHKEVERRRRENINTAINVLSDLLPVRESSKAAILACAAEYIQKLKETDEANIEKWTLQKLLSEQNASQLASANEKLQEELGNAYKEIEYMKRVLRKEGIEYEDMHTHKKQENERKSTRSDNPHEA
Method: competition protein-binding microarray
Molecule type: double-stranded DNA, one strand shown
Medium: in vitro
Tested at: 2 µM
Setting: whole 60-bp probe, lowest competitor level
Together with: Pho4 competitor, 0.05 µM
Reading: higher = stronger binding
Endpoint: fluorescence intensity
Constant ends, left off below: … GTCTTGATTCGCTTGACGCTGCTG
CTTGCAAACAGCGGCCACGTCGCATCAAGTGGTGGC: 53.9 a.u.
GTCTTGTCTCATTGACTAGTGGGTGTCCCCACTTCA: 68.1 a.u.
GTCTATCTTGACCAGCGCGTGGTCGGCCGCCAATGC: 75.3 a.u.
ACTAACGACTATTTGCACGTTGCAGTATTGTTCTGG: 157 a.u.
GGAGTTCGGGAGTTGCACGTGGCACCTGGTGACAGC: 786 a.u.
TGCGCAACAACTTGACGGGTGGGTGTATGTCTAGAA: 72.8 a.u.
AAGATTCCGGAGTCCCTCGTGAGGAAATTTTTATTA: 87.8 a.u.
CCGGTTGACGGGGTTCGCGTGATTGTGCGATTCGTT: 97.8 a.u.
TGCGCAACAACTTTTCACGTGAAGTTATGTCTAGAA: 926 a.u.
TCATGCATCCATTGCCTCGTGTAACTGAAATCAAAG: 117 a.u.
AAGGTAATGGTATGGCTCGTGACGGATTTACCCAAC: 277 a.u.
GACAGAAAAATTTGTCACGTGACGGGAAAAGTTACG: 24200 a.u.
CGTCCTAGTGATTTTCACGTGCGATCCATGAGGAAG: 778 a.u.
AATGATATCACCAGTACCGTGACGGACATCAAACTC: 126 a.u.
AGTCGACTGAGGCGGAACGTGTGGAAGGGAAGCAGG: 62.7 a.u.
AAAGCGGTAATTTGTCACTAGACTTCACATATCTAT: 105 a.u.
AACCGGGTTATTTTGCACGTGATGGGCACTTGGGAG: 3730 a.u.
CTAACGAAGGTTTGTCACGTGTTTTACAAGCCAAGT: 4220 a.u.

Set 4
Target: RNA binding protein fox-1 homolog 2, RRM domain, GST-SBP tag (RBFOX2, Homo sapiens, UniProt O43251-10, residues 100-194)
Method: RNA Bind-n-Seq
Molecule type: RNA
Medium: in vitro
Tested at: 365 nM
Setting: natural RNA segment, single round, ends assumed
Reference: no-protein control
Reading: higher = stronger binding
Endpoint: RBNS enrichment (R)
Constant ends, left off below: GGGAGUUCUACAGUCCGACGAUC … UGGAAUUCUCGGGUGCCAA
Residues (chain): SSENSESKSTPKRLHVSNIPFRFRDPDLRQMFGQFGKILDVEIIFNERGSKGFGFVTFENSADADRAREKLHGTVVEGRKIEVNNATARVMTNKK
UGACAGUCACCUGGGGUCCCCCCUCUCCCUGGUUCCACCUUUCUGAGGAGGAGCCUGGAGUCAGGGCUGGGUUUUGGAUUAACCCAUCCUUCCUAGUUAACACCUUUUUG: 0.258
AUUUUCAUUUGUUUCAGUAUUGUUGGUUUUCUCUUUUCUCUUUUUUACACUGUGGUACAUAUAAGCAACUUGACUAGUGACAAAUGUACAGUAGUUAGAUAUCACCUACA: 0.905
GGGUACUGUGUGUGCACAUAGACACACUUACGUGGAAUUACAGUUGUGGGUUUAUCCAAGAUGAGGAAGAUUUCACCUGCUGUUUAAUAGACUUGGGGCCAUGUGCCUCC: 0.401
ACAUGCUUAUUGAAUGUAUAGCCGUGUUUGCUGAGUAACCUGUCCCACCGUUGAGGCUAUCUGAAGUGUAUUGUAUGAAGGAAGUAUCAAGAACAAAUCAUUGGCCCGUU: 4.42
GGUGGAGUCUUAGGAAGACCCAGGAGUGACUGAGCAGGACAGUAAAGGGAUUCUCCUCAGAACCCAUUGAGUCCUCCACCCCACAGUUGUGCUUGGAAGCCUGUUGACUG: 1.02
UGGGGGGAAGGAUUAUUAUUCAUGUUAUUUUCCCUGCCCAAGACUUUAUUUAACCCUGGACUCCGUUUACACAGACAAAGUGACAUCAGAAGGCUGAGCACUUAUCUGGA: 0.789
CCAUCUAGUUGGUUUGGGGACCCUGGUGCAUGCUAGUGGGCAUGGGAUCAGCCAAGCUUCGUUCCAUCUUUUCCUAAAGGUCAGAGCUGCAGCCUAGGGGGCACUGCCCU: 3.76
AUAAACUUUUAAAAAGCAGGCACUAAUAUAUAUUUCUUCCAGCCUUUGAUUACAAAUUUGUCCUUGCACAUGUUAAGAUGAAUUAUCUCCUAAAAAUAUCAUUGUUCUUG: 0.431

Repeated from above (set 3):
CGTCCTAGTGATTTTCACGTGCGATCCATGAGGAAG: 778 a.u.
AATGATATCACCAGTACCGTGACGGACATCAAACTC: 126 a.u.
AGTCGACTGAGGCGGAACGTGTGGAAGGGAAGCAGG: 62.7 a.u.
AAAGCGGTAATTTGTCACTAGACTTCACATATCTAT: 105 a.u.
